Measurements pooled from the literature.
A part holds a random share of what one study measured.
UniProt O75676, sequence (whole entry, looked up): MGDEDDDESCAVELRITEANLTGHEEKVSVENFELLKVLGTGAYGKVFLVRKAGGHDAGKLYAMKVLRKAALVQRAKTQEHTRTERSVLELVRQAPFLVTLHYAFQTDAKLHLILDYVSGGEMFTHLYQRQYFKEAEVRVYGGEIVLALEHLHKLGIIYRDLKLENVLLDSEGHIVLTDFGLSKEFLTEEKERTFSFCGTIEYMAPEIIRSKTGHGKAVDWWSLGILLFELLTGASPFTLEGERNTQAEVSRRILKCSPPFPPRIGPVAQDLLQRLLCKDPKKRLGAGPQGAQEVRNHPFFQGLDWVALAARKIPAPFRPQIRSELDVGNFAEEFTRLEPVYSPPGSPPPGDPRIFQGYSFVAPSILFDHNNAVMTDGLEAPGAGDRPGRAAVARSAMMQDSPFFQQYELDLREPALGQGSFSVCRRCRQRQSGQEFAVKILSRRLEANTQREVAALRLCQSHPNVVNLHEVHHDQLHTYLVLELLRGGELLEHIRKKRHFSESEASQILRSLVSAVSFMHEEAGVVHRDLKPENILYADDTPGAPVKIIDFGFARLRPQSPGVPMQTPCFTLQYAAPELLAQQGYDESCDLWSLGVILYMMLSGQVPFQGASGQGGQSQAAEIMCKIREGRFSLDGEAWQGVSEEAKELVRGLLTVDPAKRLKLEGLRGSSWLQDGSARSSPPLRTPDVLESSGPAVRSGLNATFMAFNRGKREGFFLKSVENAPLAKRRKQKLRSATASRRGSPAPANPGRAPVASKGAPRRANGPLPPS
UniProt Q8WXR4, sequence (whole entry, looked up): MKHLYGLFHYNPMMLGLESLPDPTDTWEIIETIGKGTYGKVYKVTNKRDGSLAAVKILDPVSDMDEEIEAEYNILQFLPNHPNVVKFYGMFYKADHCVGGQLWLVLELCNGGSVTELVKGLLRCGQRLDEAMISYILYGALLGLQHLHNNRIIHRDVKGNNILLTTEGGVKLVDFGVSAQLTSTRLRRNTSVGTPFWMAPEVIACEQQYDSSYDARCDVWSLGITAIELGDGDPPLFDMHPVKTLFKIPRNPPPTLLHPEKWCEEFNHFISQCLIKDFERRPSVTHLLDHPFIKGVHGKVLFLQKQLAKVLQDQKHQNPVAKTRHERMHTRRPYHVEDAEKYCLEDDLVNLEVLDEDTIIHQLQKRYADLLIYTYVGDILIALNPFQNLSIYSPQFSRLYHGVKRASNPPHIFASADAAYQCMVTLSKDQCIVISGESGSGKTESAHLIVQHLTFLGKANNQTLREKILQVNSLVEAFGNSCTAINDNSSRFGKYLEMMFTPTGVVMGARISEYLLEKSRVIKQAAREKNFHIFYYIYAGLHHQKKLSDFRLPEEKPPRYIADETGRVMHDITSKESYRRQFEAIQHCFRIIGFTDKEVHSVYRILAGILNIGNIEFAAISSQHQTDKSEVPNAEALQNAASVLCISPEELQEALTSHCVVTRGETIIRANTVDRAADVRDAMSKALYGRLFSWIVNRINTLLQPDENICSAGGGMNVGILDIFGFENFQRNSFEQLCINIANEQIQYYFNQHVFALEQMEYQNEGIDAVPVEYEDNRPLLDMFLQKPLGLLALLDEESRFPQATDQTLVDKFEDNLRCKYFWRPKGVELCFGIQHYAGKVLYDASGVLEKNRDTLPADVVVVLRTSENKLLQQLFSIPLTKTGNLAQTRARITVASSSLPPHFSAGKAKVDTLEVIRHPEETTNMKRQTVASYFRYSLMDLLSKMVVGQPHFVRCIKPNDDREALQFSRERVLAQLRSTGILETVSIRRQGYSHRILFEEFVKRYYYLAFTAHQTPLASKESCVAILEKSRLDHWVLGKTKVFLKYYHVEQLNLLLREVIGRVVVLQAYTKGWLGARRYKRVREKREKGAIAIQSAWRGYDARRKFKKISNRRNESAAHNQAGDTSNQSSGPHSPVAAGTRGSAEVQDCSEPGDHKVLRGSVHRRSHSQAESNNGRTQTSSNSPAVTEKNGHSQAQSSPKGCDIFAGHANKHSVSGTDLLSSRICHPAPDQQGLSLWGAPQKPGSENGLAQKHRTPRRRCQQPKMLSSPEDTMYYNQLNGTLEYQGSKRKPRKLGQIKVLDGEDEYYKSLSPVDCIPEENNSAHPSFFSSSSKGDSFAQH
UniProt Q16566, sequence (whole entry, looked up): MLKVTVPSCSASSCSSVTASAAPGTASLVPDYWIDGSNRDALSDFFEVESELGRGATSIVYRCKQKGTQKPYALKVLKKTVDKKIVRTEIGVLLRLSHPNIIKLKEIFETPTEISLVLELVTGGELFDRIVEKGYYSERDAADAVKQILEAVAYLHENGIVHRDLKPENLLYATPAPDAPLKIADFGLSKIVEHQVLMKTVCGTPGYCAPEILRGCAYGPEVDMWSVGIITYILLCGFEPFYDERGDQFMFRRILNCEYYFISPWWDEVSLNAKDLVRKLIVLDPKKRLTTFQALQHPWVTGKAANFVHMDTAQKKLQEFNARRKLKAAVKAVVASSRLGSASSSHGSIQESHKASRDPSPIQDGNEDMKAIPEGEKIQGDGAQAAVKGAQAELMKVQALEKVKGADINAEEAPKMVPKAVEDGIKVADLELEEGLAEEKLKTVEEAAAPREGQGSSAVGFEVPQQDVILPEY
UniProt Q96L34, sequence (whole entry, looked up): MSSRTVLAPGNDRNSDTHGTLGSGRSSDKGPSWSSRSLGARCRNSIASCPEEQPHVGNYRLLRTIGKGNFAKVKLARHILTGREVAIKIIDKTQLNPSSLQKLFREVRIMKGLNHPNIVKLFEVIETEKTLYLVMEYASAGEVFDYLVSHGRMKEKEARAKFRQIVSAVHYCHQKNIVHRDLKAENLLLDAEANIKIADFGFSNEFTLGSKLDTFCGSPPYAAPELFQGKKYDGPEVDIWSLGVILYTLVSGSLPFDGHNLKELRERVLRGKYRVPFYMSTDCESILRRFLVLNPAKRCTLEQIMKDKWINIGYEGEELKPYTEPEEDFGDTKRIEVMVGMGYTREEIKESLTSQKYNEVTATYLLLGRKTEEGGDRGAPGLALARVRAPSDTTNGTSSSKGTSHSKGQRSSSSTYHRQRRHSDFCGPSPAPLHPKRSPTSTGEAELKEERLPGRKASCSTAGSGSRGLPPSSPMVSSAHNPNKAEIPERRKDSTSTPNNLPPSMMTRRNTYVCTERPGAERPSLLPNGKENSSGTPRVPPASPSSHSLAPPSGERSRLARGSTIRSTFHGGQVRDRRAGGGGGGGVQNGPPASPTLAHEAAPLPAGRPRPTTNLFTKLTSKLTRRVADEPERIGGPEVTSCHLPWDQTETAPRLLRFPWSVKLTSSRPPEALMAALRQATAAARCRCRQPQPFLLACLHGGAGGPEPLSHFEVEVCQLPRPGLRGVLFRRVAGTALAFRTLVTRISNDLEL
UniProt P51956, sequence (whole entry, looked up): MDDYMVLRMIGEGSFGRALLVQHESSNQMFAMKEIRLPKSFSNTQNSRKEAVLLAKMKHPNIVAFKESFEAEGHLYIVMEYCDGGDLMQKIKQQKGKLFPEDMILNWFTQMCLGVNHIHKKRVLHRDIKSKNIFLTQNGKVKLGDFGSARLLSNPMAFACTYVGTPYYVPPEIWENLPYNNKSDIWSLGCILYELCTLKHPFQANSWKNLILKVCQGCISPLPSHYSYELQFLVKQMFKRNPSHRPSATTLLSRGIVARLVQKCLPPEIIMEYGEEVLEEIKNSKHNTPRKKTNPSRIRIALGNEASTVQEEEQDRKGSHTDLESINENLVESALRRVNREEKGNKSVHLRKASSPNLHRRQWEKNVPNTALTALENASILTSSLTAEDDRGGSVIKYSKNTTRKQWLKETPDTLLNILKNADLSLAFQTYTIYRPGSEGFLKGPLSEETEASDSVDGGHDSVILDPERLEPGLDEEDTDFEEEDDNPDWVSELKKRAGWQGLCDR
UniProt P28482, sequence (whole entry, looked up): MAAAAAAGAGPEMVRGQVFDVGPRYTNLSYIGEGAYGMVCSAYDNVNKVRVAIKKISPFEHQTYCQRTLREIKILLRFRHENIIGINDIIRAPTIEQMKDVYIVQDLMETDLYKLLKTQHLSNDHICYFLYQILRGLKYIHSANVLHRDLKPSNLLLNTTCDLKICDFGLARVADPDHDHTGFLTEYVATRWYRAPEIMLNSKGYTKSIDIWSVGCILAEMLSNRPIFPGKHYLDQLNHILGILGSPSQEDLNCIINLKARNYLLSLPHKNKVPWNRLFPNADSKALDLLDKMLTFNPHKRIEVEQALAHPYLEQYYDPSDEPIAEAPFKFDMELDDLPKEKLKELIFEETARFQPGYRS
UniProt Q16539, sequence (whole entry, looked up): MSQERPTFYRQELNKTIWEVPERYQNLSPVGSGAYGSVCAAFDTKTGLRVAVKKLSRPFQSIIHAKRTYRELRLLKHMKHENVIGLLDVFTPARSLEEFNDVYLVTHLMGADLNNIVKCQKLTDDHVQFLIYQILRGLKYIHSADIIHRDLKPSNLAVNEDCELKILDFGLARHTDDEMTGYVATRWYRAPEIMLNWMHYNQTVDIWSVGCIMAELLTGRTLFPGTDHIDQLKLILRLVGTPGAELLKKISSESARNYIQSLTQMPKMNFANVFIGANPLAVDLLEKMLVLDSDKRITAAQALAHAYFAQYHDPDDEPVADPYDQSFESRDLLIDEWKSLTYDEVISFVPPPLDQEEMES

Block 1 — species: human; matrix: microsomes or S9; concentration: 2 µM; time: 0.5 h
SMILES	remaining compound [%]
Cc1nn(C2CCS(=O)(=O)C2)c2c1C(C(C)C)CC(=O)N2 (centres unmarked)	74.2
Cc1cc(C23CC4CC(CC(C4)C2)C3)cc2sc(N)nc12	75.7
O=C(c1ccccc1)c1cc(Cl)ccc1Nc1cc(Br)cc2c1N(c1ncccn1)CC2	18.3
CC(C)OC(=O)N1CCC(CNc2ncnc3c(-c4ccc(S(C)(=O)=O)cc4)csc23)CC1	84.7
Cc1cc(N2CCCC2c2cc(C)on2)nc(N)n1 (centres unmarked)	94.3
CN(C)CCNC(=O)C1c2ccccc2Oc2ccccc21	77.6
CCC(C)NC(=O)Cn1nc2n(CCC(=O)NCC(C)C)c(=O)c3ccccc3n2c1=O (centres unmarked)	76.2

Block 2 — observed: enzyme activity; action: inhibitor; concentration: 0.5 µM; reference: control
SMILES: N#CC(c1ccnc(NCCc2cccnc2)n1)c1nc2ccccc2s1 (centres unmarked)
target	remaining activity
RPS6KA4 (Homo sapiens, UniProt O75676)	107%
AKT2 (Homo sapiens, UniProt P31751)	104%
DCLK2 (Homo sapiens, UniProt Q8N568)	96%
MET (Homo sapiens, UniProt P08581)	105%
CLK4 (Homo sapiens, UniProt Q9HAZ1)	43.8%
MAPK11 (Homo sapiens, UniProt Q15759)	101%
Cyclin-dependent kinase 1, with cyclin A (CDK1, Homo sapiens, UniProt P06493)	83%
Myosin-IIIb (MYO3B, Homo sapiens, UniProt Q8WXR4)	96.1%
MAPK1 (Homo sapiens, UniProt P28482)	93.5%
CAMK4 (Homo sapiens, UniProt Q16566)	99%
NEK3 (Homo sapiens, UniProt P51956)	87.9%
MAPK14 (Homo sapiens, UniProt Q16539)	89.1%
PRKG2 (Homo sapiens, UniProt Q13237)	98.1%
MARK4 (Homo sapiens, UniProt Q96L34)	91.6%

Block 3 — observed: binding; method: radioligand binding; concentration: 10 µM
Target: D(4) dopamine receptor (DRD4, Homo sapiens, UniProt P21917)
UniProt P21917, sequence (whole entry, looked up): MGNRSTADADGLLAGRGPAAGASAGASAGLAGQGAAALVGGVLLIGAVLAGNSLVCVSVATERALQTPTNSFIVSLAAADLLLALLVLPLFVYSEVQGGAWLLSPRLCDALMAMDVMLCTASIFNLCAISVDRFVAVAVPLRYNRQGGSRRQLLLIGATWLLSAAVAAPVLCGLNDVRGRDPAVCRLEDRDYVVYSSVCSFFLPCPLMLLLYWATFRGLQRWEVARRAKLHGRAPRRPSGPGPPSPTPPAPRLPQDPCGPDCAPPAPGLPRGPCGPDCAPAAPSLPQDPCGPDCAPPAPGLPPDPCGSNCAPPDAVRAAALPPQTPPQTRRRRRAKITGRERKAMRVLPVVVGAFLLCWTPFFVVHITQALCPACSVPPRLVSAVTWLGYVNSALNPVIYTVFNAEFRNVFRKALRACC
SMILES	inhibition
COc1cccc(CNC(=O)c2nc3scc(COCc4ccc(C(=O)O)cc4)c3c(=O)[nH]2)c1	14%
Cc1c(NC(=O)c2cc(C(N)=O)nc3cc(F)ccc23)c(C(F)(F)F)nn1Cc1ccc(C(C)(C)C)cc1	4.93%
O=C(Nc1ccc(-n2nc(-c3cccnc3)cc2C(F)(F)F)cn1)c1ccc(-c2ccccc2)c(F)c1	-10.6%
Cc1nccc(COC(=O)N2C[C@@H]3[C@@H](CNC(=O)c4ccc5[nH]nnc5c4)[C@@H]3C2)n1	-0.15%
Cc1cc(C)c(-n2ccn3nc(-c4cccnc4)cc23)cc1NC(=O)c1cc(C#N)cc(S(F)(F)(F)(F)F)c1	16.4%
CS(=O)(=O)NCC[C@H](NC(=O)c1cncc2c1cnn2-c1ccc(F)cc1)c1ccnc(S(C)(=O)=O)c1	-5.61%
C[C@@]1(Cc2ccc(C#N)cc2)C(=O)N(c2cc(Cl)cc(Cl)c2)c2ncc(C(=O)NC3(c4nc(C5CCC5)no4)CC3)n21	13.6%
CC(=O)Nc1nc(CN2CCC[C@H](Cc3cc(C)nc(C)c3)C2)cs1	6.82%
CN1CCN(C(=O)C(C)(C)c2ccc(C(=O)Nc3cn4cc(-c5ccncc5)ccc4n3)cc2)CC1	9.12%
CC(=O)Nc1c(F)cc(C(=O)N[C@H]2CC[C@H](O)CC2)cc1O[C@@H](C)c1ccccc1	36%

Other studies, line by line
Structure (SMILES)	system	setting	endpoint	result
CC(C)n1cnc(-c2ccc(F)cc2)c1-c1ncc(C(=O)Nc2ccc(N3CCN(C)CC3)cc2)[nH]1	human, idiopathic pulmonary fibrosis	30 mg once daily, trial, treatment-emergent	patients with Headache	0%
